Measurements collected from several papers.
Compare with care: the assays were run in different laboratories.
Target: Homeodomain-interacting protein kinase 4 (HIPK4, Homo sapiens, UniProt Q8NE63)

Structure (SMILES)	test	conditions	scale	endpoint	value
C=CC(=O)N1CCCC(n2c(=O)c3ncccc3n(Cc3ccc(Oc4ccccc4)cc3)c2=O)C1 (stereo not shown)	cell-free assay, competition with immobilised ligand	1 µM	–	remaining binding	76%
NC(=O)[C@@H](O)C[C@H]1CCc2sc3ncnc(O[C@H]4CC[C@H](N5CCOCC5)CC4)c3c21	enzyme activity, inhibitor	10 µM	–	inhibition	8%
Cc1cccc(O[C@H]2CCC[C@@H](C(C)CNCc3ccncc3)C2)c1 (relative stereo)	enzyme activity, inhibitor	10 µM	–	inhibition	1%
COc1cc(Nc2nc(C)cc(-c3cnn4nc(OC)ccc34)n2)cc(C(F)(F)F)c1	inhibitor	1 µM	reference: control	remaining activity	92%
Cc1cc(NC(=O)[C@H](O)c2cc(F)cc(F)c2)ccc1-c1cnc(N)c(C(=O)NC(C)C)c1	binding, competition with immobilised ligand	0.1 µM	–	remaining binding	100%
C=CC(=O)Nc1cccc(-c2cnc3[nH]cc(C(=O)NC(C)(C)C)c3n2)c1	enzyme activity, inhibitor	0.1 µM	–	inhibition	37%
Cc1ccc(-c2c(/C=C(\C#N)C(=O)NC(C)C)n(CCCO)c3ncnc(N)c23)cc1	cell-free assay, competition with immobilised ligand	1 µM	–	remaining binding	71%
CCn1cc(C(=O)O)c(=O)c2c(N)c(F)c(NC3CCCCC3)cc21	kinase activity	0.1 µM, together with: ATP at Km	–	inhibition	-0.7%
COc1c(Cl)cccc1Nc1c(-c2ccncc2C#C[C@@]2(C)CCCN2C(=O)/C=C/CN(C)C)[nH]c2c1C(=O)NCC2	binding, competition with immobilised ligand	3 µM	–	remaining binding	97%
Nc1ncc(-c2cc(-c3cnn(CC(F)(F)F)c3)ncc2F)nc1C(=O)NC1CNCC(F)C1 (stereo not shown)	enzyme activity	1 µM	reference: DMSO control	remaining activity	87.7%
CNC1C[S+]2CC[S+]3CC[S+](C1)[Ru-4]321([N]=C=S)[n]2c3ccc(OC)cc3c3c4c(c5cc(F)c[n+]1c5c32)C(=O)NC4=O (stereo not shown)	KinomeScan	0.1 µM	reference: untreated	remaining binding	73%
CC(C)=CC1OC(C)(C)C2C=C3C(=O)C(Cl)=CC(O)C3C3C(O)C4OC4C(=O)C132 (stereo not shown)	cell-free assay, competition with immobilised ligand	10 µM	–	remaining binding	93%
C=CC(=O)N1Cc2nc(-c3cc(-c4cc(Cl)cnc4Cl)c(F)cc3F)n(-c3ccncn3)c2C1	cell-free assay, inhibitor	1 µM	–	inhibition	3.9%

A few entries again:
Structure (SMILES)	test	conditions	scale	endpoint	value
C=CC(=O)N1Cc2nc(-c3cc(-c4cc(Cl)cnc4Cl)c(F)cc3F)n(-c3ccncn3)c2C1	cell-free assay, inhibitor	1 µM	–	inhibition	3.9%
